# Measurements collected from several papers.
# Parts stem from different laboratories: compare values within a part only. Positions count from the first letter of the parent shown.

# Series 1
# Target: ABI1, truncated, D143A, DHFR fusion (Arabidopsis thaliana)
# Method: DHFR PCA, deep sequencing
# Sample: yeast
# Setting: methotrexate growth selection, single substitutions
# With: (+)-ABA 4.8 µM
# Reference: wild-type fitted maximum
# Reading: higher = stronger binding
# Starting sequence: PYL1, truncated, DHFR fusion (Arabidopsis thaliana); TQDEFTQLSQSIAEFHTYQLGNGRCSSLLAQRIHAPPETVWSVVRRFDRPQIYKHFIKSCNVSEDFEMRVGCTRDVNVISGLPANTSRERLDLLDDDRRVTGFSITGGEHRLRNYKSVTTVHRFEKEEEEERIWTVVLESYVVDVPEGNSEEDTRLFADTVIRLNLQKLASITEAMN; partner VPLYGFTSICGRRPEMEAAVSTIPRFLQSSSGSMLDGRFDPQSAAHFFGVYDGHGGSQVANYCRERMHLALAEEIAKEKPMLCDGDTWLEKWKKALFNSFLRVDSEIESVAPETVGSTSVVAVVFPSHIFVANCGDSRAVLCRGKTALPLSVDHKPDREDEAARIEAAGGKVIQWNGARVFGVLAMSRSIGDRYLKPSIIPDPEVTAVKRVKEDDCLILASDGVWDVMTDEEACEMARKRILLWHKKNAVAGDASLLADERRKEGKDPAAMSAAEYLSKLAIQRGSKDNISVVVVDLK
Substitution,relative binding score
F47H,-20.4%
L138W,0.112%
T160W,21.1%
R98D,9.18%
R98Q,52.9%
A84Q,4.16%
M68H,48.9%
R98S,22.3%
H110N,71.5%
I162M,-7.65%
N177I,70.5%
I133G,90.5%
L29P,13%

# Series 2
# Target: Interferon regulatory factor 3, full length, phosphomimetic (IRF3, Homo sapiens, UniProt Q14653, residues 1-427, S386D/S396D/S398D/S402D/T404D/S405D)
# Method: protein-binding microarray
# Form: double-stranded DNA, one strand shown
# Sample: in vitro
# Concentration: 2540 nM top
# Setting: 60-bp whole probe
# With: salmon DNA 0.4 mg/ml
# Reference: random background probes
# Reading: higher = stronger binding
# All sequences stand within: GCCTAGCAC … GTCTTGATTCGCTTGACGCTGCTG
# Construct (chain): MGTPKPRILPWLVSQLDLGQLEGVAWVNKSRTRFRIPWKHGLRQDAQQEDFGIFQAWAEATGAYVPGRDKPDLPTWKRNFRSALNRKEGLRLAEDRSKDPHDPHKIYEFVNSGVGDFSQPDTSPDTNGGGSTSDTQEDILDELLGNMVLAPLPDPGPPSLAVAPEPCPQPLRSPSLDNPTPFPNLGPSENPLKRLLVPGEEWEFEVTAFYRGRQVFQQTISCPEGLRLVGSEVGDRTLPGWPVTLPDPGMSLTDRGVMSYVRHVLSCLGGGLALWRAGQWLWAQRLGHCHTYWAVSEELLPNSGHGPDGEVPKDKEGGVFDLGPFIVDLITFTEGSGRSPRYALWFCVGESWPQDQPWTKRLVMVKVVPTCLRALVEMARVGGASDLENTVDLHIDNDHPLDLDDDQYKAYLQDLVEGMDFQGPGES
Sequence,fitted relative affinity [z-score]
GGTCATGTCTGTGTCACAGAGTGCTAG,0.323
TCACATCTCAAGTAGCCTACTGTGCTA,1.01
GACGAACTGAGTTTCGAGAAGTGCTAG,0.813
TTGTAAATCTTTTTCCCTATGTGCTAG,1.27
GACGAGCTGAGTTTCGAGACGTGCTAG,1.03
TTAGGACTGGACTTACGGTTAGTGCTA,-0.493
TGAGGTTTCGGTTCCGGTTAGTGCTAG,10.7
GAATGTCTTCCCCTCTCTTTGTGCTAG,0.332
TCATTTTGCTTTCTTTTACTGTGCTAG,2.97
GACGATATCAGACTCGAGACGTGCTAG,0.836
GACGGAATCGACTTTCGGGACGTGCTA,0.778
GACGGTATTGACTATCGGGACGTGCTA,-0.137
TTAGGTTTCCATATCCTTTAGTGCTAG,7.11
TTAGGACTGCTTTTCGTTTAGTGCTAG,1.12
TTAGGTCCCGGACTGGGTTAGTGCTAG,-0.431
GACGAACTGAGACTGTAGACGTGCTAG,-0.098
TTAGATCTCACTATCGATTAGTGCTAG,0.58
TCTCTTTCCACTTGTCTTTTCGTGCTA,3.16
TTAGATTTCAGTATCGACTAGTGCTAG,2.06
TTAGGACTGGACTAACGGTTAGTGCTA,-0.62
TTAGGTATCCTTTTCCATTAGTGCTAG,8.14
TTAGGTATCGGGTATCGGTTTGTGCTA,2.9

# Series 3
# Target: CCNA2, cyclin fold, Cln2 fusion (human)
# Method: yeast growth competition, sequencing
# Sample: yeast
# Setting: strong parent motif
# Reference: not given
# Reading: higher = stronger binding
# Starting sequence: PKN2 docking peptide (human); VSAVQKLDFSDTM
Substitution,normalised enrichment score
F9T,-0.26
L7D,-0.659
S10K,0.739
L7W,-0.218
V1M,2.38
S10Y,1.84
D11F,1.33
F9Q,-0.274
T12R,1.96
A3R,0.762
V4M,1.38
T12M,2.51
K6R,3.25

# Series 4
# Target: Fragile X messenger ribonucleoprotein 1, C-terminal low-complexity region (Fmr1, Mus musculus, UniProt P35922)
# Method: RNA Bind-n-Seq
# Form: RNA
# Sample: in vitro
# Concentration: 200 nM
# Setting: whole 134-nt RNA, ends assumed
# With: 150 mM KCl
# Reference: input library
# Reading: higher = stronger binding
Sequence,log2 enrichment
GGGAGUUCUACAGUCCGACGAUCCUGUGCUACACAUCGUAUGUACCGAAUCGGGGCCCCCCCGGGGCCCCCCCGGCCCCCCCGGGAAAGUAUUAUGUUACGCCGUUCGGAUCUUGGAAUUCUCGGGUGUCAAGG,-1.2
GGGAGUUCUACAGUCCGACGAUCUCAAGUCCUGUGCUACACAUCGUAUGUACCGAAUCGGGUUGGGUUGGGGUUGGGGAAAGUAUUAUGUUACGCCGUUCGGAUCUGCACUUCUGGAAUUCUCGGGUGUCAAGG,1.46
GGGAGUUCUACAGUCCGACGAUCCCUGUGCUACACAUCGUAUGUACCGAAUCGGGGUUUUUGGGGAAAAAAAGGGGUUUGGGGAAAGUAUUAUGUUACGCCGUUCGGAUCUGCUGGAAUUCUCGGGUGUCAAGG,0.35
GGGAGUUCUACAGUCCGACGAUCCCCUGUGGGCCUUGCUCAGAGCGGAGAAAGCAUUUGUUUGUACAAGAUCCGCAGACGUGUAAAUGUUCCUGCAAAAACACAGACUCGCGUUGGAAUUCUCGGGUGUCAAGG,-0.8
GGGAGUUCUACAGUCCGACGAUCGCAGGAAGUAAAAACAAAUGUAAAUGCUUCGGAUAGUGGCAGGGGUGGGGGUUGCUAAGGAAAGGGUGGGAUGGGAGUGGGUAAAGAGUUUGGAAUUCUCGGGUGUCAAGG,0.263
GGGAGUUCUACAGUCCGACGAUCAGUCCUGUGCUACACAUCGUAUGUACCGAAUCGGUUUUUGGAAAAAAAGGAAAAAGGAAAGUAUUAUGUUACGCCGUUCGGAUCUGCACUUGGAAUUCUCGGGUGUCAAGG,-1.21
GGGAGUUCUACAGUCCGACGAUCCAAGUCCUGUGCUACACAUCGUAUGUACCGAAUCGGUUUGGGGUUUGGUUUGGGGAAAGUAUUAUGUUACGCCGUUCGGAUCUGCACUUCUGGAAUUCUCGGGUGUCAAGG,-0.0308
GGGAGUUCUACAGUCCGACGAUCGCAGGAAGUAAAAACAAAUGGAAAUGCUUCGGAUAGUGGCAGGGGUGGGGGUUGCUAAGGAAAGGGUGGGAUGAAAGUGGGUAAAGAGUUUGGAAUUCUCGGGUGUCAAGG,0.546
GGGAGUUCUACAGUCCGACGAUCCUCAAGUCCUGUGCUACACAUCGUAUGUACCGAAUCGGGGCCGGCCGGCCGGGAAAGUAUUAUGUUACGCCGUUCGGAUCUGCACUUCCAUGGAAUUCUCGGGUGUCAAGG,-0.0583
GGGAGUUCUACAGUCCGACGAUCUAACUUUAGAGGAGGAUCUGAUGGAUAUGGCAGUGGACGUGGAUUUGGGGAUGGCUAUAAUGGGUAUGGAGGUGGACCUGGAGGUGGCAAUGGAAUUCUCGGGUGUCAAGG,0.337

# Excerpt of the above (series 4):
Sequence,log2 enrichment
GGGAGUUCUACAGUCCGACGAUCUCAAGUCCUGUGCUACACAUCGUAUGUACCGAAUCGGGUUGGGUUGGGGUUGGGGAAAGUAUUAUGUUACGCCGUUCGGAUCUGCACUUCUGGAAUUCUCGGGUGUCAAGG,1.46
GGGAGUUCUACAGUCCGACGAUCCCUGUGCUACACAUCGUAUGUACCGAAUCGGGGUUUUUGGGGAAAAAAAGGGGUUUGGGGAAAGUAUUAUGUUACGCCGUUCGGAUCUGCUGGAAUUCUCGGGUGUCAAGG,0.35
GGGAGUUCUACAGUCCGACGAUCCCCUGUGGGCCUUGCUCAGAGCGGAGAAAGCAUUUGUUUGUACAAGAUCCGCAGACGUGUAAAUGUUCCUGCAAAAACACAGACUCGCGUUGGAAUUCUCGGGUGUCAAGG,-0.8
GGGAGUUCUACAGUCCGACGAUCGCAGGAAGUAAAAACAAAUGUAAAUGCUUCGGAUAGUGGCAGGGGUGGGGGUUGCUAAGGAAAGGGUGGGAUGGGAGUGGGUAAAGAGUUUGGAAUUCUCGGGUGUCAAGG,0.263
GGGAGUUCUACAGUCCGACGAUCAGUCCUGUGCUACACAUCGUAUGUACCGAAUCGGUUUUUGGAAAAAAAGGAAAAAGGAAAGUAUUAUGUUACGCCGUUCGGAUCUGCACUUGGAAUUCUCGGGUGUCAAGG,-1.21
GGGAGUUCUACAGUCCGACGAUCCAAGUCCUGUGCUACACAUCGUAUGUACCGAAUCGGUUUGGGGUUUGGUUUGGGGAAAGUAUUAUGUUACGCCGUUCGGAUCUGCACUUCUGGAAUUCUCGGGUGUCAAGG,-0.0308
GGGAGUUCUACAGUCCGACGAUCGCAGGAAGUAAAAACAAAUGGAAAUGCUUCGGAUAGUGGCAGGGGUGGGGGUUGCUAAGGAAAGGGUGGGAUGAAAGUGGGUAAAGAGUUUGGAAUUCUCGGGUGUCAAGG,0.546
